Measurements collected from several papers.
Each line is one published result; not all experiments were run side by side.
PRKG1: cGMP-dependent protein kinase 1 (PRKG1, Homo sapiens, UniProt Q13976)
Chain of UniProt Q13976 (whole entry, looked up): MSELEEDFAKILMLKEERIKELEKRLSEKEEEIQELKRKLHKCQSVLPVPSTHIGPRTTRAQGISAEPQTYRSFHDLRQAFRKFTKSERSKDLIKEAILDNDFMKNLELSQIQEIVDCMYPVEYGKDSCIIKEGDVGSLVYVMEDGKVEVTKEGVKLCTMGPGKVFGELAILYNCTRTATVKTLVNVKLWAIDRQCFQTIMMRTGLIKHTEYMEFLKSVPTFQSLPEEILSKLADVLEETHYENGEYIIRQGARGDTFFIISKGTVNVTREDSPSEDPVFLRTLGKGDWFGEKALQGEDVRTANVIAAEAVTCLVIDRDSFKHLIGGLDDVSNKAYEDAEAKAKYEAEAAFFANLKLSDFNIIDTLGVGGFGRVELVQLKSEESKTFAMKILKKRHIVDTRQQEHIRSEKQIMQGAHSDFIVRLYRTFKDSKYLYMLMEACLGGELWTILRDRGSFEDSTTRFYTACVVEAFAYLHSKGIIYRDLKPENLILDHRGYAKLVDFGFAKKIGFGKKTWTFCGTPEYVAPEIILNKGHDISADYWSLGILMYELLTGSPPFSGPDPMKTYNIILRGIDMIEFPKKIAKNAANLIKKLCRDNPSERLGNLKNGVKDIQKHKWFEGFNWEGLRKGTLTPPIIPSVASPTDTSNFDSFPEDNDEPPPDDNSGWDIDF
PRKG1 isoform beta: cGMP-dependent protein kinase 1, isoform beta (PRKG1, Homo sapiens, UniProt Q13976)

Structure (SMILES)	target	test	conditions	how to read	quantity	result
Cc1cnc2nc1Nc1cccc(c1)COC/C=C/COCc1cc(ccc1OCCN1CCOCC1)N2	PRKG1	binding	0.1 µM	–	remaining binding	100%
CCN1CCN(Cc2ccc(C(=O)Nc3ccc(C)c(NCc4cnc5[nH]ccc5c4OC)c3)cc2C(F)(F)F)CC1	PRKG1	binding, competition with immobilised ligand	1 µM	–	remaining binding	100%
O=C(Cc1ccc(OCc2ccccc2)cc1)NC1(C(=O)O)CCN(C(=O)c2ccc(-c3cccc(Cl)c3)cc2)CC1	PRKG1	enzyme activity, inhibitor	10 µM	–	activity vs control	106%
CN1CCN(Cc2ccc(-c3ccc(CO[C@H]4CCC[C@@H]4NC(=O)c4cc(-c5cnn(C)c5)cnc4N)cc3)cc2)CC1	PRKG1	enzyme activity, inhibitor	0.1 µM	–	inhibition	7%
COc1cc(Nc2nccc(-c3cnn4nc(OC)ccc34)n2)cc(C(F)(F)F)c1	PRKG1	binding, competition with immobilised ligand	1 µM	–	remaining binding	100%
CNC1C[S+]2CC[S+]3CC[S+](C1)[Ru-4]321([N]=C=S)[n]2c3ccc(OC)cc3c3c4c(c5cc(F)c[n+]1c5c32)C(=O)NC4=O (stereo not drawn)	PRKG1	KinomeScan	0.1 µM	relative to: untreated	remaining binding	63%
CN1CC[C@@H](COc2cnc(C#N)cc2-c2ccn3nc(NC(=O)C4CC4)cc3c2)C1	PRKG1 isoform beta	inhibitor, KinaseProfiler panel	1 µM	–	inhibition	-6%
O=C=[N][Ru-4]123([n]4c5ccc(O)cc5c5c6c(c7cc(F)c[n+]1c7c54)C(=O)NC6=O)[S+]1CC[S+]2CC[S+]3CC1 (stereo not drawn)	PRKG1 isoform beta	enzyme activity	100 nM, human enzyme, with: 10 µM ATP	relative to: untreated	remaining activity	24%
C=CC(=O)N1CCc2ccc(-n3c(=O)ccc4cnc5ccc(-c6cnn(C)c6)cc5c43)cc21	PRKG1	KINOMEscan	1 µM	relative to: DMSO control	remaining binding	88%
C=CC(=O)Nc1cccc(-c2cnc3[nH]cc(C(=O)NC(C)(C)C)c3n2)c1	PRKG1	enzyme activity, inhibitor	0.1 µM	–	inhibition	5%
Cc1c[nH]c2nccc(-c3ccc(C(=O)N[C@@H]4c5c(F)cc(C(F)F)cc5C[C@@H]4O)cn3)c12	PRKG1	binding, competition with immobilised ligand	3 µM	–	remaining binding	8.5%
Cc1cccc(O[C@H]2CCC[C@@H](C(C)CNCc3ccncc3)C2)c1 (relative stereo)	PRKG1	enzyme activity, inhibitor	1 µM	–	inhibition	3%
NC(=O)[C@@H](O)C[C@H]1CCc2sc3ncnc(O[C@H]4CC[C@H](N5CCOCC5)CC4)c3c21	PRKG1	radioisotope kinase	10 µM	–	inhibition	-3%
CNC(=O)C[C@H](Cc1ccc(C#N)cc1)NC(=O)c1cc(-c2ccc(CN[C@H](C)c3ccc(C)cc3)o2)ccc1Cl	PRKG1	enzyme activity, inhibitor	1 µM	–	activity vs control	94%
COc1c(OCCCN2CCOCC2)ccc2c1N=C(NC(=O)c1cnc(N)nc1)N1CCN=C21	PRKG1	kinase activity, inhibitor	1 µM	relative to: untreated control	remaining activity	108%
CNC(=O)C1CCN(c2cc(C)c(F)cc2NC(=O)c2ccc(-c3cc(O)ccc3C)c(C)c2)CC1	PRKG1	binding, competition with immobilised ligand	1 µM	–	remaining binding	100%
Nc1ncc(-c2cc(-c3cnn(CC(F)(F)F)c3)ncc2F)nc1C(=O)NC1CNCC(F)C1 (stereo not drawn)	PRKG1 isoform beta	enzyme activity	1 µM	relative to: DMSO control	remaining activity	98.3%
C=CC(=O)N1CCCC(n2c(=O)c3ncccc3n(Cc3ccc(Oc4ccccc4)cc3)c2=O)C1 (stereo not drawn)	PRKG1	cell-free assay, competition with immobilised ligand	1 µM	–	remaining binding	97%
NC(=O)C[C@H]1CCc2sc3ncnc(O[C@H]4CC[C@H](N5CCOCC5)CC4)c3c21	PRKG1	radioisotope kinase	10 µM	–	inhibition	-1%
Cc1nc2c(F)cc(-c3nc(Nc4ccc(CNC(=O)CCCCCCC(=O)NO)cc4)ncc3F)cc2n1C(C)C	PRKG1	enzyme activity, inhibitor	1 µM	–	inhibition	81%
COc1ccc(NC(=O)Nc2ccc3c(c2)C(=O)N(C(C)CO)CC(C)C(CN(C)Cc2ccc4c(c2)OCO4)O3)cc1 (stereo not drawn)	PRKG1	kinase activity, KinaseProfiler	0.03 µM, species human	relative to: control	remaining activity	95%

Repeated from above:
Structure (SMILES)	target	test	conditions	how to read	quantity	result
C=CC(=O)N1CCCC(n2c(=O)c3ncccc3n(Cc3ccc(Oc4ccccc4)cc3)c2=O)C1 (stereo not drawn)	PRKG1	cell-free assay, competition with immobilised ligand	1 µM	–	remaining binding	97%
NC(=O)C[C@H]1CCc2sc3ncnc(O[C@H]4CC[C@H](N5CCOCC5)CC4)c3c21	PRKG1	radioisotope kinase	10 µM	–	inhibition	-1%
Cc1nc2c(F)cc(-c3nc(Nc4ccc(CNC(=O)CCCCCCC(=O)NO)cc4)ncc3F)cc2n1C(C)C	PRKG1	enzyme activity, inhibitor	1 µM	–	inhibition	81%
